Assay results pooled from the literature.
Compare with care: the assays were run in different laboratories. Values joined by “and” are separate records of one study, mostly repeats; a detail may differ. ± marks the error that the study gave.

For `Cc1cc(-c2ccc(C(=O)[C@@H]3CCCC[C@H]3C(=O)Nc3cnn4c3C(=O)NCC4)cc2)[nH]n1`, “recovery of radioactivity per interval” read 0.06% (human, faeces; oral, 200 mg, 288-312 h, discharged subjects excluded; relative to: dose).
With `C=C[C@]1(C)C[C@@H](OC(=O)CSc2ccc(NC(=O)c3ccco3)cc2)[C@]2(C)[C@H](C)CC[C@]3(CCC(=O)[C@H]32)[C@@H](C)[C@@H]1O` the plasma concentration was 17.5 ng/mL and 14 ng/mL and 12.5 ng/mL and 14.2 ng/mL and 12 ng/mL and 13.6 ng/mL and 15.4 ng/mL and 13.7 ng/mL (Mycoplasma gallisepticum-infected chickens, plasma; intramuscular, 80 mg/kg, 24 h).
Under relaxivity change, `CN(CCNCc1ccncc1[O-])CCNCc1ccncc1[O-].[Cl-].[Fe+3]` is recorded as “no effect” (mouse serum; 0.20 mM, 4 h, outcome no effect).
`C#CC(C)NC(=O)C(CC(C)(C)F)NC(c1ccc(-c2ccc(S(C)(=O)=O)cc2)cc1)C(F)(F)F` (stereo not drawn): “GSH adduct formation” 2% (PBS; 100 µM, 23 h, pH 7.45, 37 °C, added: GSH 5 mM).
`CCCC[C@H](NC(=O)CCCCCCCNC(=O)CN1CCN(CC(=O)O)CCN(CC(=O)O)CC1)C(=O)N[C@H]1CC(=O)NCCCC[C@@H](C(N)=O)NC(=O)[C@H](Cc2c[nH]c3ccccc23)NC(=O)[C@H](CCCNC(=N)N)NC(=O)[C@@H](Cc2ccccc2)NC(=O)[C@H](Cc2c[nH]cn2)NC1=O` [fluorine-18 labelled] has a urinary excretion of 75.77 ± 0.75% (C57 mice, B16/F10 melanoma, urine; intravenous, 0.37 MBq, 2 h).
`CCCCN1C(=O)c2cccc3c(NCCCCN4CCOCC4)ccc(c23)C1=O` gave an absorption maximum of 429 nm (dichloromethane).
For `CC(C)(O)c1ncc([S@](N)(=O)=NC(=O)Nc2c3c(cc4c2CCC4)CCC3)s1`, “nervous system adverse events” read 17% (healthy human; oral, 300 mg single dose, capsule formulation).
For `Cc1nc(N)nc2c1C(=O)N[C@@H](c1ccc(F)cc1-c1cccc(OCC[18F])n1)C2`, the SUV was 0.79 ± 0.03 (ex vivo biodistribution; C57BL/6 mice, muscle; intravenous, 1 MBq, 30 min).
`COc1cccc(OC)c1-c1cc(C(=O)NC2(C(=O)O)C3CC4CC(C3)CC2C4)nn1-c1ccc(C(=O)N(C)CCCN(C)CCCN(C)C(=O)[C@H](CCCCNC(=O)[C@H](CC(C)C)NC(=O)C2OC2C(=O)O)NC(=O)CN2CCN(CC(=O)[O-])CCN(CC(=O)[O-])CCN(CC(=O)[O-])CC2)cc1C(C)C.[177Lu+3]` (mixture of isomers) gave a tumour-to-liver ratio of 6.26 (mouse, HT-29 xenograft; 4 h post injection, biodistribution; relative to: tumour over liver uptake).
With `O=C(Nc1cnccc1-c1ccc([18F])nc1)c1ccnc(NC(=O)C2CC2)c1` the SUV was 0.095 (mice, transgenic, GSK-3β, early-stage, blood; intravenous, dose not given, 120 min).
`C[C@H](CCC(=O)NCC(=O)O)[C@H]1CC[C@H]2[C@@H]3[C@H](O)C[C@@H]4C[C@H](OS(=O)(=O)O)CC[C@]4(C)[C@H]3CC[C@]12C`: “mean daily plasma concentration” 0.0821 ± 0.0155 µM (human, plasma; baseline).
`CCCC[C@H](OC(C)=O)c1ccccc1C(=O)O` gave an AUC(0-t) of 1220 ± 371 ng·h/mL (beagle dog, both sexes, whole blood; intravenous, 1.5 mg/kg, day 7).
For `CN1CCC[C@]1(C)/C=C/S(=O)(=O)NC(=O)Nc1c2c(cc3c1CCC3)CCC2`, “subjects with adverse event” read 0% (item: nervous system disorders; human; oral, 100 mg twice daily, 14 days, multiple ascending dose).
For `C[N+](C)(CCOCCOCCOCCNC(=S)Nc1ccc(C[C@H]2CN(CC(=O)[O-])CCN(CC(=O)[O-])CCN2CC(=O)[O-])cc1)C[c-]1cccc1.[64Cu+2].[Fe+2].c1cc[cH-]c1`, the tumour uptake was 0.1 %ID/g (nude mice, BxPC-3 xenograft, tumour; 24 h, no pretargeting).
`O=C(CN1CCN(CC(=O)NCc2ncccc2O)CCN(CC(=O)NCc2ncccc2O)CCN(CC(=O)NCc2ncccc2O)CC1)NCc1ncccc1O.[177Lu+3]` gave a biodistribution of 0.014 ± 0.008 % injected dose/g (Sprague-Dawley rat, large intestine; intravenous, dose not given, 2 h).
For `CN1CCC[C@]1(C)/C=C/S(=O)(=O)NC(=O)Nc1c2c(cc3c1CC(O)C3)CCC2` (stereo partly drawn), “AUC(0-tau) accumulation ratio” read 1.7 (human, plasma; oral, 100 mg twice daily of parent drug, metabolite of dosed drug; relative to: day 14 over day 1).
For `COc1cccc(OC)c1-c1cc(C(=O)NC2(C(=O)O)C3CC4CC(C3)CC2C4)nn1-c1ccc(C(=O)NCCNC(=O)[C@H](CCCCNC(=O)[C@H](CC(C)C)NC(=O)C2OC2C(=O)O)NC(=O)CN2CCN(CC(=O)[O-])CCN(CC(=O)[O-])CCN(CC(=O)[O-])CC2)cc1C(C)C.[177Lu+3]` (mixture of isomers), the tumour-to-liver ratio was 5.74 (mouse, HT-29 xenograft; 24 h post injection, biodistribution; relative to: tumour over liver uptake).
With `Cc1c(Cc2cccc(OC(C)(C)C(=O)O)c2)c2ccc(C(=O)N[C@@H](C)c3cccc(C(C)(C)C)c3)cc2n1CC1CC1` the half-life was 0.778 h (metabolic stability; mouse, liver microsomes).
The half-life of `C/C(N)=N/C(=N\S(=O)(=O)c1ccc(C(F)(F)F)cc1)N1C[C@H](c2ccccc2)C(c2ccc(Cl)cc2)=N1` is reported as 2.9 h (C57BL/6 mouse, liver; intravenous, 10 mg/kg).
`CC(C)[C@H](NC(=O)[C@H](Cc1c[nH]c2ccccc12)NC(=O)[C@H](CCCNC(=N)N)NC(=O)[C@H](CCCNC(=N)N)NC(=O)[C@@H](NC(=O)[C@@H](NC(=O)[C@H](CCCNC(=N)N)NC(=O)[C@@H](NC(=O)[C@@H](NC(=O)[C@H](CCCNC(=N)N)NC(=O)[C@H](CCCNC(=N)N)NC(=O)[C@@H](NC(=O)[C@H](Cc1c[nH]c2ccccc12)NC(=O)[C@H](CCCNC(=N)N)NC(=O)[C@H](CCCNC(=N)N)NC(=O)[C@@H](NC(=O)[C@H](CCCNC(=N)N)NC(=O)[C@H](CCCNC(=N)N)NC(=O)[C@@H](NC(=O)[C@H](Cc1c[nH]c2ccccc12)NC(=O)[C@H](CCCNC(=N)N)NC(=O)[C@@H](N)CCCNC(=N)N)C(C)C)C(C)C)C(C)C)C(C)C)C(C)C)C(C)C)C(C)C)C(=O)N[C@@H](CCCNC(=N)N)C(=O)N[C@@H](CCCNC(=N)N)C(=O)O` has a urinary glucose of 71 mg/dL (CD-1 mice; intravenous, 15 mg/kg, 6-24 h).
`C=C(NC(=O)c1csc(-c2nc3c(cc2O)-c2nc(cs2)C(=O)NC(C(C)O)C(=O)NC(=C(C)OC)c2nc(cs2)C(=O)NC2c4nc(cs4)C(=O)NC(COC(=O)c4c5c6c(cccc6n4O)COC(=O)C(OC4CC(C)(O)C(N(C)C)C(C)O4)C2OC5)c2nc-3cs2)n1)C(N)=O` (stereo not drawn) has an MRT(0-t) of 3.2 h (ICR mice, Streptococcus pneumoniae ATCC 49169 infected, immunocompromised, blood; intravenous, 4 mg/kg/day twice daily).
`O=[N][Fe]1([N]=O)[S](CCO)[Fe]([N]=O)([N]=O)[S]1CCO` has a serum creatinine of 0.32 ± 0.04 mg/dL (aged C57BL/6JNarl mice on Western diet; po, 2.65 mg/kg daily, 16 weeks).
For `CCC(=[NH+][Pt-2]1([OH])([OH])([Cl])[NH2+]CCC[NH2+]1)N(C)CCNc1c2ccccc2[nH+]c2ccccc12.O=[N+]([O-])[O-].O=[N+]([O-])[O-]`, the logD was -1.26 ± 0.06 (shake-flask; 1-octanol/water; pH 7).
For `CCCCN1C(=O)c2cccc3c(NCCCN4CCOCC4)ccc(c23)C1=O`, the absorption maximum was 429 nm (ethyl acetate).
For `[2H]C1([2H])CC[C@@H](C[C@@H](C#N)NC(=O)[C@@H]2[C@@H]3[C@H](CN2C(=O)[C@@H](NC(=O)C(F)(F)F)C(C)(C)C)C3(C)C)C(=O)N1`, the intrinsic clearance was 39 µL/min/mg (human liver microsomes; microsomes 0.5 mg/mL).
`CCCCN1C(=O)c2cccc3c(NCCN4CCOCC4)ccc(c23)C1=O` gave a fluorescence lifetime of 8.8 ns (dichloromethane).
For `CC(=O)N([O-])CCCCCNC(=O)CCC(=O)N([O-])CCCCCNC(=O)CCC(=O)N([O-])CCCCCN.[89Zr+4]`, the intact complex was 97.8 ± 1% (mouse plasma; 1 d, 37 °C).
`CC(C(=O)O)n1nc(Cn2cc3cc(OCC[18F])c(Cl)cc3n2)c2ccccc2c1=O` (racemic) gave a tracer uptake of 1.79 %ID/g (rat, liver; 30 min).
`CCCCN1C(=O)c2cccc3c(NCCCCCN4CCOCC4)ccc(c23)C1=O` has an absorption maximum of 423 nm (toluene).
For `CC(C)C[C@H](NC(=O)[C@H](CCCNC(=N)N)NC(=O)[C@H](Cc1ccccc1)NC(=O)[C@H](Cc1ccccc1)NC(=O)[C@@H](NC(=O)[C@H](COP(=O)(O)O)NC(=O)[C@@H](N)COP(=O)(O)O)[C@@H](C)O)C(=O)N[C@@H](Cc1ccccc1)C(=O)N[C@@H](CC(N)=O)C(=O)N[C@@H](CCCNC(=N)N)C(=O)N[C@@H](C)C(=O)N[C@@H](CCCCN)C(=O)N[C@@H](CCCNC(=N)N)C(=O)N[C@@H](Cc1c[nH]cn1)C(=O)N[C@@H](Cc1c[nH]cn1)C(=O)NCC(=O)N[C@@H](Cc1ccc(O)cc1)C(=O)N[C@@H](CCCCN)C(=O)N[C@@H](CCCNC(=N)N)C(=O)N[C@@H](CCCCN)C(=O)N[C@@H](Cc1ccccc1)C(=O)N[C@@H](Cc1c[nH]cn1)C(=O)O`, the peptide concentration was 0.562 mg/mL (HPLC-UV; human saliva; 6 h, 37 °C, added: initial 1 mg/mL).

Excerpt of the above:
`CCCCN1C(=O)c2cccc3c(NCCCCCN4CCOCC4)ccc(c23)C1=O` has an absorption maximum of 423 nm (toluene).
For `CN1CCC[C@]1(C)/C=C/S(=O)(=O)NC(=O)Nc1c2c(cc3c1CC(O)C3)CCC2` (stereo partly drawn), “AUC(0-tau) accumulation ratio” read 1.7 (human, plasma; oral, 100 mg twice daily of parent drug, metabolite of dosed drug; relative to: day 14 over day 1).
`C=C(NC(=O)c1csc(-c2nc3c(cc2O)-c2nc(cs2)C(=O)NC(C(C)O)C(=O)NC(=C(C)OC)c2nc(cs2)C(=O)NC2c4nc(cs4)C(=O)NC(COC(=O)c4c5c6c(cccc6n4O)COC(=O)C(OC4CC(C)(O)C(N(C)C)C(C)O4)C2OC5)c2nc-3cs2)n1)C(N)=O` (stereo not drawn) has an MRT(0-t) of 3.2 h (ICR mice, Streptococcus pneumoniae ATCC 49169 infected, immunocompromised, blood; intravenous, 4 mg/kg/day twice daily).
